# Published values from different studies.
# Numbered parts are unrelated; each lists some results of a single study.

# Sample 1 — action: inhibitor; tested at: 20 µM
# Target: Replicase polyprotein 1ab, nsp13 helicase (rep, Severe acute respiratory syndrome coronavirus 2, UniProt P0DTD1)
SMILES,inhibition [%]
CCOc1cccc(NC(=O)c2ccc(N3CCCC3)c(C(F)(F)F)c2)c1,13.8
CC(CN(C)C)C(C)(O)Cc1ccc(Cl)cc1 (centres unmarked),0.23
Nc1cc(F)ccc1NC(=O)c1ccc(CNC(=O)/C=C/c2cccnc2)cc1,1.02
NC[C@H](CC(=O)O)c1ccc(Cl)cc1,6.27
CCCCCCCCC(=O)N[C@H](CN1CCCC1)[C@H](O)c1ccc2c(c1)OCCO2,6.41
O=C(O)C1=CCNCC1,2.23
CC(=O)c1cc([N+](=O)[O-])c(Sc2ccc(F)cc2F)s1,0.45
COc1ccc(CNC(=O)/C=C/c2ccc3[nH]cc(CCN(C)C)c3c2)cc1,6.17
CC1CCN(C(c2ccc(F)cc2)c2ccc(C(C)C(=O)O)cc2-c2ccc(C(F)(F)F)cc2)CC1 (centres unmarked),0.17
Clc1ccc(C2=CCC[C@@H]3CC[C@H]2N3)cn1,11.2
CON,2.7
COc1ccc(C(=O)c2c(C)n(CCN3CCOCC3)c3ccccc23)cc1,7.96
CCc1c(O)cc(O)c(C(=O)c2ccc(OCCN3CCOCC3)c(OC)c2)c1CC(=O)N(CCOC)CCOC,5.11
C[C@H](NC(=O)c1sccc1OCc1ccc(Cl)cc1)c1ccccc1,1.36
O=C(CCc1ccc(O)cc1)c1c(O)cc(O)cc1O[C@@H]1O[C@H](CO)[C@@H](O)[C@H](O)[C@H]1O,-0.82
O=C1c2c(O)cc(O)cc2O[C@H](c2ccc(O)c(O)c2)[C@H]1O,5.82
Nc1nc2c(ccc3ccccc32)s1,0.33
S=C=Nc1ccc(N=C=S)cc1,7.42
COC(=O)C1=C(C)NC(C)=C(C(=O)OCCSc2ccccc2)C1C (centres unmarked),6.02
Cn1ccc2cc(NC(=O)Nc3cccnc3)ccc21,6.46
Cc1ccc([N+](=O)[O-])cc1S(=O)(=O)N(C)/N=C/c1cnc2ccc(Br)cn12,7.58
COc1ccc([C@@H]2CC(=O)c3c(O)cc(O[C@@H]4O[C@H](CO)[C@@H](O)[C@H](O)[C@H]4O[C@@H]4O[C@@H](C)[C@H](O)[C@@H](O)[C@H]4O)cc3O2)cc1O,5.65
C[C@H]1CN(Cc2ccc(CC(=O)N3CCC(Nc4cccc(F)c4)CC3)cc2)CCN1,0.39
Nc1nc(=O)n([C@@H]2CS[C@H](CO)O2)cc1F,2.1
Cc1ccc2c(c1)[C@]13CCCC[C@@H]1[C@H](C2)N(C)CC3,-3.29

# Sample 2 — cell line: HEK-293T/ACE2; tested at: concentration not given; time: 16 (unit not given); relative to: vehicle
SMILES,viability [%]
C=C1C[C@@H]2[C@H](CC[C@]3(C)C(=O)CC[C@@H]23)[C@@]2(C)C=CC(=O)C=C12,103
CN(C)C/C=C/C(=O)Nc1cc2c(Nc3ccc(F)c(Cl)c3)ncnc2cc1O[C@H]1CCOC1,84.1
CCc1nn(CCCN2CCN(c3cccc(Cl)c3)CC2)c(=O)n1CCOc1ccccc1,96.4
COc1cc([C@@H]2c3cc4c(cc3[C@@H](O[C@@H]3O[C@@H]5CO[C@@H](C)O[C@H]5[C@H](O)[C@H]3O)[C@H]3COC(=O)[C@H]23)OCO4)cc(OC)c1O,81.2

# Sample 3 — method: protein-binding microarray; molecule type: double-stranded DNA, one strand shown; matrix: in vitro; tested at: 250 nM; notes: 60-bp whole probe; with: salmon DNA 0.4 mg/ml; relative to: random background probes; direction: higher = stronger binding; shared flanks, not repeated: GCCTAGCAC … GTCTTGATTCGCTTGACGCTGCTG
# Target: Interferon regulatory factor 5, full length, phosphomimetic (IRF5, Homo sapiens, UniProt Q13568-2, residues 1-514, K96S/S451D/S453D/S456D/S462D)
Oligonucleotide,log fluorescence [z-score]
TTCTATCTCTGTTTTTGCTTGTGCTAG,1.57
TTAGGTTTCTGACTGGGTTAGTGCTAG,0.714
TTAGGTTTCGAATTTCGGTTAGTGCTA,8.12
GACGATATCGGGCTTCGAGACGTGCTA,0.864
AACCACATAGGAAGAACAACGTGCTAG,0.0531
TCACTTCTGGATCTCAGACTGTGCTAG,-0.00756
GACGGTCTCCTTCTCCGGACGTGCTAG,-0.0561
TTAGATATCAGGTTTCGATTAGTGCTA,7.59

# Sample 4 — read-out: enzyme activity; action: inhibitor; tested at: 20 µM; notes: primary screen
# Target: Replicase polyprotein 1ab, main protease (rep, Severe acute respiratory syndrome coronavirus 2, UniProt P0DTD1)
SMILES,inhibition
C[C@@H]1O[C@@H](O[C@@H]2[C@@H](O)[C@H](OCCc3ccc(O)c(O)c3)O[C@H](CO)[C@H]2OC(=O)/C=C/c2ccc(O)c(O)c2)[C@H](O)[C@H](O)[C@H]1O,94.2%
CCn1c(-c2ccc(Cl)cc2)n[nH]c1=O,98.2%
NC[C@@H]1O[C@H](C23CC4CC(CC(C4)C2)C3)Cc2c1ccc(O)c2O,97.3%

# Sample 5 — method: protein binding microarray; molecule type: double-stranded DNA, one strand shown; matrix: in vitro; tested at: not given; relative to: not given; direction: higher = stronger binding
# Target: Histone acetyltransferase KAT6A, both winged helices, GST fusion (KAT6A, Homo sapiens, UniProt Q92794, residues 1-181)
# Notes: 8-mer, flanks averaged, mean of 2 arrays, mostly near background
# Target sequence (chain): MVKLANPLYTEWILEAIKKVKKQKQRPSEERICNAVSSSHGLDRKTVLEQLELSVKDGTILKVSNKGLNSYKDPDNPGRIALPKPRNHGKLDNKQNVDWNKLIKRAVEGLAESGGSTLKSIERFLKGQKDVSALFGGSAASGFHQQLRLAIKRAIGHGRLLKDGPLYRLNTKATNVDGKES
Oligonucleotide,E-score
GTATTTTA,-0.0246
ACTCTACA,-0.167
CACCGCAC,0.122
ACAATAAA,-0.106
ATATCTGA,-0.0277
TATAATAA,0.0396
CAGATCGA,-0.177
CCTGAGTA,-0.119

# Sample 6 — method: RNA Bind-n-Seq; molecule type: RNA; matrix: in vitro; tested at: 365 nM; relative to: no-protein control; direction: higher = stronger binding
# Target: RNA binding protein fox-1 homolog 2, RRM domain, GST-SBP tag (RBFOX2, Homo sapiens, UniProt O43251-10, residues 100-194)
# Notes: natural RNA segment, single round, ends assumed
# Shared flanks, not repeated: GGGAGUUCUACAGUCCGACGAUC … UGGAAUUCUCGGGUGCCAA
# Target sequence (chain): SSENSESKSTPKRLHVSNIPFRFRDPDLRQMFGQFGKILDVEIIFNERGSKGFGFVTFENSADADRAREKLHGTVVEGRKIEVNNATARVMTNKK
Oligonucleotide,RBNS enrichment (R)
GACCGCAGACUGCAGCUCUGUCAUGCGAGGAAGCGCUCAAGUGUCCUGUGCGAACCCCUCGCCUCUUCCUGAGAUAGACUUGGCUCUCCCUCUUGGAUACUCUGCCCAUU,0.661
AGGAGGGCCUGUGGUGACCUACUGCAUUGACCCACUCUGCCCCCGAGUGAACCGUGGAGCAGGCAGGAGCAUCCUUUGUCUCACCAAUUCCAGGAUUUAGGCCUUAUCAU,0.58
UGCUCUGCACCCCUCCCUUGGGAGGGAGACUUCAUGUGGUUUAUUGCGAGUUUUUUGUUUACUUUUCAGGUUUGUACUACAAGGUUUAAUAAUAAAAACAAAGUUUUUUG,0.419
UAAUGUUGGAAACACAAAUAGUGCAAUUUGUGCAAUUGGAGAAUCUUGCCUUUUUUCUUGUCUCCCUCCCACCCCCCAACACAAACAAACAGAAGCUUGUACGUAUUCAU,1.09
CUCUAUUCUCCAUGUCGACUGAGAAGAGUAUAAUAAGAACAUUGUACCCUCUCCACACUUAACCCUCUGGGAUUCUUUAUUAUAAUAUAAACCACCGUCGUGAGGCAUUU,0.968
CUCUCUUUGCCUCCACUUUACAAAAGAUAAUAUGAUAGAGGCAACGUUUAUAACAGUCACAUUUAAUUAUAAUGUACAUCAAAGGCAGAAUUUCAGAAUGGUUUCUUAAA,0.67
UUUCAAGCGCUAUCCACAUCUGACCACAGGCUGGAGAUGUAAGCAGGGAUCUCGGCAGGGAAACAAACCCGAGAGGACACGUGGGAUUUCAGCAAUACUGACUGUGAAGU,0.248
GAAGCAUGGGCUGGGUUCCGGUUCAUCCUCCUCCACCCUGCCGUGUGUGUGGGCACAAGAGGACAUCUAACCACCUGCUCCUUGGAGGAGGCCCCCAGGGGUGGUAGAGG,1.48

# Excerpt of the above (sample 1):
SMILES,inhibition [%]
CC(=O)c1cc([N+](=O)[O-])c(Sc2ccc(F)cc2F)s1,0.45
COc1ccc(CNC(=O)/C=C/c2ccc3[nH]cc(CCN(C)C)c3c2)cc1,6.17
CC1CCN(C(c2ccc(F)cc2)c2ccc(C(C)C(=O)O)cc2-c2ccc(C(F)(F)F)cc2)CC1 (centres unmarked),0.17
Clc1ccc(C2=CCC[C@@H]3CC[C@H]2N3)cn1,11.2
CON,2.7
COc1ccc(C(=O)c2c(C)n(CCN3CCOCC3)c3ccccc23)cc1,7.96
